Experimental data pooled from the literature.
Lines come from different studies, so protocols differ. ± marks the error that the study gave.

The IC50 of `COC(=O)c1ccc2c(c1)NC(=O)/C2=C(\Nc1ccc(N(C)C(=O)CN2CCN(CCOCCOCCNC(=O)c3cc(OCc4cn(CCCCN5C[C@@H]6C[C@H]5C(=O)N[C@@H](CC(C)C)C(=O)N[C@@H](CCCNC(=N)N)C(=O)NCC(=O)N[C@@H](CC(=O)O)C(=O)N[C@@H](CC(C)C)C(=O)N6)nn4)cc(OCc4cn(CCCCN5C[C@@H]6C[C@H]5C(=O)N[C@@H](CC(C)C)C(=O)N[C@@H](CCCNC(=N)N)C(=O)NCC(=O)N[C@@H](CC(=O)O)C(=O)N[C@@H](CC(C)C)C(=O)N6)nn4)c3)CC2)cc1)c1ccccc1` is reported as under 1000 nM (integrin αVβ6 (mouse); cell adhesion to fibronectin; L929; 30 min preincubation).
`Oc1ccc(-c2cc(-c3ccc(OCCN4CCCCC4)cc3)n(-c3ccc(O)cc3)n2)cc1` has an IC50 of 8670 ± 120 nM (TLR4 (mouse); TNF-alpha production, inhibitor; RAW264.7; 6 h, added: LPS 10 ng/mL).
`N=C(N)c1ccc(-c2ccc(-c3nc4ccc(C(=N)N)cc4[nH]3)[se]2)cc1` gave an IC50 of 50 nM (PU.1 ETS domain (mouse); protein-DNA binding, inhibitor, surface plasmon resonance; added: λB site DNA hairpin).
The IC50 of `COc1cc(C(=O)c2[nH]c(N)nc2-c2cccs2)cc(OC)c1OC` is reported as 63000 ± 27000 nM (MAP-rich tubulin; polymerization, inhibitor, light scattering; 37 °C).
With `CCCCC/C=C/C(=O)CCc1ccc(O)c(OC)c1` the IC50 was over 4 µg/mL (mAb 5-D8; antibody binding, indirect competitive ELISA; added: coating antigen hapten 3-OVA).
`CN[C@@H]1[C@H](O)[C@H](NC)[C@H]2O[C@]3(O)[C@H](O[C@@H]2[C@H]1O)O[C@H](C)C[C@@]3(O)CNCCc1ccc(C)cc1` has an IC50 of 1430 ± 410 nM (Mycolicibacterium smegmatis ribosome; cell-free translation).
The IC50 of `Oc1ccc(-c2cc(-c3ccc(OCCCN4CCCCC4)cc3)n(-c3ccc(O)cc3)n2)cc1` is reported as 9260 ± 360 nM (TLR4 (mouse); TNF-alpha production, inhibitor; RAW264.7; 6 h, added: LPS 10 ng/mL).
For `CN[C@@H]1[C@H](O)[C@H](NC)[C@H]2O[C@]3(O)[C@H](O[C@@H]2[C@H]1O)O[C@H](C)C[C@@]3(O)CNCCC1CCOCC1`, the IC50 was 1150 ± 400 nM (Mycolicibacterium smegmatis ribosome; cell-free translation).
`COc1cc(CCC(C)=O)ccc1O` has an IC50 of 0.165 µg/mL (mouse mAb 1-D6; antibody binding, indirect competitive ELISA).
For `CN[C@@H]1[C@H](O)[C@H](NC)[C@H]2O[C@]3(O)[C@H](O[C@@H]2[C@H]1O)O[C@H](C)C[C@@]3(O)CNCc1ccc(F)cc1`, the IC50 was 1180 ± 380 nM (Mycolicibacterium smegmatis ribosome; cell-free translation).
For `CCCc1c(-c2ccc(O)cc2)nn(-c2ccc(O)cc2)c1-c1ccc(OCCN2CCCCC2)cc1`, the IC50 was 4720 ± 150 nM (TLR9; TNF-alpha production, antagonist, ELISA; RAW264.7; 6 h, added: CpG-DNA 1 µM).
The IC50 of `O=C(Nc1ccc(S(=O)(=O)Nc2nccs2)cc1)c1cc(-c2ccccc2)nc2ccccc12` is reported as about 1000 nM (ChREBP human; reporter gene, inhibitor, LPK promoter luciferase; HepG2; added: high glucose).
The IC50 of `CN[C@@H]1[C@H](O)[C@H](NC)[C@H]2O[C@]3(O)[C@H](O[C@@H]2[C@H]1O)O[C@H](C)C[C@]3(O)CNCCc1nccs1` is reported as 32000 ± 31000 nM (Mycolicibacterium smegmatis ribosome; cell-free translation).

For quick reference, copied from above:
The IC50 of `COC(=O)c1ccc2c(c1)NC(=O)/C2=C(\Nc1ccc(N(C)C(=O)CN2CCN(CCOCCOCCNC(=O)c3cc(OCc4cn(CCCCN5C[C@@H]6C[C@H]5C(=O)N[C@@H](CC(C)C)C(=O)N[C@@H](CCCNC(=N)N)C(=O)NCC(=O)N[C@@H](CC(=O)O)C(=O)N[C@@H](CC(C)C)C(=O)N6)nn4)cc(OCc4cn(CCCCN5C[C@@H]6C[C@H]5C(=O)N[C@@H](CC(C)C)C(=O)N[C@@H](CCCNC(=N)N)C(=O)NCC(=O)N[C@@H](CC(=O)O)C(=O)N[C@@H](CC(C)C)C(=O)N6)nn4)c3)CC2)cc1)c1ccccc1` is reported as under 1000 nM (integrin αVβ6 (mouse); cell adhesion to fibronectin; L929; 30 min preincubation).
The IC50 of `COc1cc(C(=O)c2[nH]c(N)nc2-c2cccs2)cc(OC)c1OC` is reported as 63000 ± 27000 nM (MAP-rich tubulin; polymerization, inhibitor, light scattering; 37 °C).
